Experimental data from different studies.
Numbered parts are unrelated; each lists some results of a single study.

Series 1
Target: RING finger protein unkempt homolog, zinc fingers 1-6, GST-SBP tag (UNK, Homo sapiens, UniProt Q9C0B0, residues 30-357)
Technique: RNA Bind-n-Seq
Form: RNA
Matrix: in vitro
Tested at: not given
Notes: RNA with constant flanks, human-mouse chimeric sites, ends assumed
Baseline: input RNA pool
Direction: higher = stronger binding
Measurement: bound/input enrichment
Shared flanks, not repeated: GGGAGUUCUACAGUCCGACGAUC … CAACAGAGGAUUGAGCAUCA
Construct (chain): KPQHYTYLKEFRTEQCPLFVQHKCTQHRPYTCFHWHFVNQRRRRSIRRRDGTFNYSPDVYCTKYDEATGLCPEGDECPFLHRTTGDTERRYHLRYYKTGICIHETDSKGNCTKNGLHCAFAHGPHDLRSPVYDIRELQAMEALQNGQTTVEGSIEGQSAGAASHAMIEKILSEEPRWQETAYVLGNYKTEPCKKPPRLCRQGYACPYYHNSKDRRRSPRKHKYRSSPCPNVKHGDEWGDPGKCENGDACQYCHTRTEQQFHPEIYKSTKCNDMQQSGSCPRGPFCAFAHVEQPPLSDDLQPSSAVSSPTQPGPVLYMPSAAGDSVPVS
GGUGGGGUGGUCAUUGCCGUUUGAGCUGCUGAUUUUCUUAUGAAUCAUUCAAAACUCUCGUGUAGGGUUGACAAUGUGGGGGGGUGGGAAAUCUAGCUUAUUCUUUUAUUUUCAAGUCCA: 6.69 ratio
AGAUUCCCUCUCUUAAAACCUCCUCCGAAGUUGGAGUCUCUUAUAGAUGCCUCAUCCCCUGUUAGCGUUUUAGUUUGGACCACCCAGCCUUGGACAAUUCCCGCCAACCAGGCAAUUUGC: 0.889 ratio
GGGGAGAAACCUUAUGAGUGUGUGCAGUGUGGGAAAUCCUACAGUCAGAGCUCAAACCUCUUCAGACAUCAGAGAAGACACAAUGCAGAAAAACUUUUGAAUGUUGUGAAGGUUUAAGAA: 0.221 ratio
CAGCCUCAGAGCCCAGACUUCCUGGAUAUUACCAACCCUAAAGCGGUAUUAGAAAAUGCACUUAGGAACUUUGCCUGUCUGACGACUGGAGAUGUGAUUGCUAUCAACUACAAUGAGAAG: 1.44 ratio
UCGGAUGCUGUGCUGGGUCACUUUUCAUAUCCAGAUCCUUCACAGUGGACAGAUGAAGAACUGGGAAUCCCUCCUGAUGAUGAAGACUGACACUGUAAACUCUCUGGCACUCUGUACGCA: 0.368 ratio
CACAGAGCAGCACCUACCCCCUCCUCCUUUCCACACCUGCAAACUCUUUUACUUGGGCUGCAUAGUUAGUGUAAUUACAUCUCAGCUUUGAGGGCUCCUGUGGCAAAAUACCCGGAUAAA: 2.7 ratio
CUGUGACCACAAGAUCCUGAAGUUUGAGCAGCUGAAGUUGACUCCCUCUCCUUGCCUGAACCCCCCCCCACUGCCCCCCCAUCCCCCGCAGAAUUCCGAGAUGUUGCCUCUGCACGGUUC: 1.32 ratio
GCGGCAGAAUCAUGGAGGACAUAAUGCACUUGCCCAGAGCGCGCGUCAACGCCAGCAUGCUAGCUCAGUAUAUCGACCGGCCCGUGUGCUUCGUGGGGAAGCUGGAAAAGAUUCAUCCCA: 0.0995 ratio
GAUAAGAAAAGCUUGUUGGAGACCCGCUUGCAUGUCACUGGUAGAGACCUGAGGUGUCAAAUAGCUGAAACUUUCGGAUUUCAAGAAAAUUACAUCAAAAUUGUCAUAAAUAAGAAACAG: 0.333 ratio
GAUAGGAAAAGCUUGUUGGAGACCCGCUUGCAUGUCACUGGUAGAGACCUGAGGUGUCAAAUAGCUGAAACCUUUGGAUUUCAAGAAAAUUACAUCAAGAUCGUAAUAAAUAAGAAACAG: 0.388 ratio
GUUGCCAGCUUCCGGUUCCGUUGGGCUCGGUUCUCUCCUGAGCUACGUGUCUCUACGCUCUCAAUCCGCCAUCCAACGGCAGUCAUGGAUCAGGUAAAGUUUGUGGAGCCCAGCCGGCAG: 0.136 ratio

Series 2
Target: RNA binding protein fox-1 homolog 2, RRM domain, GST-SBP tag (RBFOX2, Homo sapiens, UniProt O43251-10, residues 100-194)
Technique: RNA Bind-n-Seq
Form: RNA
Matrix: in vitro
Tested at: 365 nM
Notes: natural RNA segment, single round, ends assumed
Baseline: no-protein control
Direction: higher = stronger binding
Measurement: RBNS enrichment (R)
Shared flanks, not repeated: GGGAGUUCUACAGUCCGACGAUC … UGGAAUUCUCGGGUGCCAA
Construct (chain): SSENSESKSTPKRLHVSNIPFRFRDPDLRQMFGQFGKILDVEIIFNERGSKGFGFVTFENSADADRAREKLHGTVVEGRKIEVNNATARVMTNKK
UACAAGAUUUACUAAGUGGGAUAAGCUAAUUAUACUUUUUGUUGUGGAUAAACAAAUGCUUGUUGAUAGCCUUUUUCUAUCAAGAAACCAAGGAGCUAAUUAUUAAUAAC: 0.319
CCCCGCCGCUUCCCCCACACGCUUGCUCGGCGCUCUGACUUCUAGGAGCACAAGAGAGGAGCCUGUGGCCCCAUGCAGAUGAAAAGGACGGGCAGGGUCUCCUGAGCAGC: 1.74
GGAGAUGAGAAGCUCUUGAUCCAAUCCCUGUGCAGCAUCAAGAAGCCCAGGAAGCUGGCCCAGGCCUGCUCCUCUGUGUUUCCCCAUGGGCAGCGAUAGAGGCCAAGUAU: 0.241
UUGAAAGUAUCUGAUGGAGCUCCUGAUGACCUAAUGUAUCCUUUAGAAAUUUAAAAUAGCAUUAGAGCAAGUUGCUUGUCAUGGCUUGAAGAGCUUAACUUUGUCUUUUG: 0.55
GGUUUUGGUCUGGGAGGGUUUUGUUUGUUGGGUUUUUUUAAAAAAAAAUGACAAUGAAGAGACACUUUGACAUUUCCUACCUUUUGAGGACUUGAUCCUUCUCCAGGAAG: 0.32
UAGCCGAGGCCAGCCGUGUUGGGAAGAGAGCCAUGCCAAGGGUCCAGGCUGCUGUAGUCCACCUGUGCCCUACUCAUUUGGGGACAGGUGGUUUUUCUUGUAAACUUGUG: 0.485
CCAAGGCUCUACUGGGUCCCUGGACCUAACCCUGCUUUCAUCCUGGUGGCCUUAACUACAGUGGAGGUGGAACUUCCCAGGAGGGGAAGGGACAGACCAGCCCCAGCCGC: 0.486
AUGAUGUGACAUAAUAGAUGUGAAUGUUAAUCACUGCUUGACUAUGUUAAUAAAGUUGUUUAACUAUGACGUUGCACUCUUGAUUUUUAAUGGAAAGAAAUUACCUUAUC: 0.589
UCAUGGAGUGAUUAUGUUGAUAAUAAUGUGUAAUGCGCGUUCUUUUCACUGGUUUAUCUACAGAAAUUUCUCUGGGCCUUUUUUUCUGUGUUUGAUUCAACACUGCACUA: 0.445
GACCAGGCCAGCCUUGAACUAACACAUAGGUUGGACCUCUGAAUGGCCUUAUACUUGGAUAUUUGGCUUGUAUCAUUAUAAGGUUGUUUUUCUCCAAACAAAUUUCCUGU: 0.324
CGCAGCUCUUCUGCCUGGUUUUCGGAGGCCAGGCUGCUGGGAAGCUUCCGUGUUCCUGUCAGUCCUUCCUUCAAGAAGCCGGGGAACUCAGGCAGACUCAUCUCCGCAGA: 0.23
GGGACAACCCAGGGCUUCGUGCAUGUCAGGCACACACUCCCAACUAAGCUACAUCCCCAGUCCCUCUUUCUAGAAAACAGAUAAGUCCAUGUUCAGGGGAGAAGAGGUCA: 1.71

Series 3
Target: Sal-like protein 4, full length isoform B (SALL4, Homo sapiens, UniProt Q9UJQ4-2, residues 1-616)
Technique: universal PBM
Form: double-stranded DNA, one strand shown
Matrix: in vitro
Tested at: not given
Notes: 8-mer, flanks averaged, mean of replicates
Direction: higher = stronger binding
Measurement: E-score
AGAAACAC: 0.0479
CTGTATTC: 0.132
ACGTCAGA: -0.0194
ACCGCCGC: -0.271
GAGAGCAC: -0.0961
GCTACATA: 0.215
GCCAGGGC: -0.343
AGCAATTA: 0.226
AGGCGAAA: -0.0732
ATGTTCAG: 0.0909
AATCTTGG: -0.0643
GATTATCA: 0.24
TCGGCTCA: -0.151
CACTACGG: -0.243
GCTTGTCA: 0.0143
GGCGGGGA: -0.0725
AGATCGGG: -0.161
GACCGCCC: -0.276
AGGCTATC: -0.0631
AGTGTTAA: 0.248
CCGATAGG: -0.0471
AGGAGTCC: -0.224
CCCCCCGG: -0.463
GATACAAA: 0.229
AGCCTTCC: -0.102

Series 4
Target: Histone acetyltransferase KAT6A, winged helix 1, GST fusion (KAT6A, Homo sapiens, UniProt Q92794, residues 1-85)
Technique: protein binding microarray
Form: double-stranded DNA, one strand shown
Matrix: in vitro
Tested at: not given
Notes: 8-mer, flanks averaged, mean of 2 arrays, mostly near background
Baseline: not given
Direction: higher = stronger binding
Measurement: E-score
Construct (chain): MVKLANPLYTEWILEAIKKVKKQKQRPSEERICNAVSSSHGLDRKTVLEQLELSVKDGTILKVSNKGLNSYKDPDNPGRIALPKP
GCTAAGTA: -0.109
GGGTCGAC: 0.0835
CATAGAGC: 0.0382
CAAGAAAG: -0.227
CACATCCC: 0.00298
ACGAAACT: -0.124
AAGCAGGA: -0.115
GAGGAAGC: -0.0134
AATTTTGC: -0.124
TGGGCGAA: -0.101
CGTCTCTA: -0.0796
AGTTCTAA: -0.0839
GCAGGCTA: -0.028
AAGCCAAA: -0.123
CTGAGGCC: 0.121
CACGGTGA: -0.0418
GAAAGAAC: -0.1
ACATTAAG: -0.178
ATGTAGAA: -0.0724
CACACTGA: -0.376
CCGTCCCC: 0.21
AACTAACG: 0.125
ACAACGAG: -0.255
GCCACAGA: -0.0546

Series 5
Target: Interferon regulatory factor 5, full length, phosphomimetic (IRF5, Homo sapiens, UniProt Q13568-2, residues 1-514, K96S/S451D/S453D/S456D/S462D)
Technique: protein-binding microarray
Form: double-stranded DNA, one strand shown
Matrix: in vitro
Tested at: 250 nM
Notes: 60-bp whole probe
Together with: salmon DNA 0.4 mg/ml
Baseline: random background probes
Direction: higher = stronger binding
Measurement: log fluorescence
Shared flanks, not repeated: GCCTAGCAC … GTCTTGATTCGCTTGACGCTGCTG
ACAAATACAAGTTTCTCCTTGTGCTAG: 1.62 z-score
TTAGATATCAGACTGGATGAGTGCTAG: 0.322 z-score
AACGATTTCGGGACTGGAGACGTGCTA: 1.87 z-score
GACGAACTGAGTATCGCGACGTGCTAG: -0.104 z-score
GCATCTATCTTAAATAGGGACGTGCTA: 0.438 z-score
TTAGTACTGGACTTTCGGTTAGTGCTA: 9.59 z-score
TCATGAGTCACTTCTGGTACTGTGCTA: -0.107 z-score
GACGCTATCGACTTTCGGGACGTGCTA: 6.9 z-score
GATGATATCAGTATCGAGACGTGCTAG: 3.73 z-score
AGGCCTCTGGGATCCCAGTCGGTGCTA: -0.589 z-score
CACGGTTTCGGGTATCGGGACGTGCTA: 7.52 z-score
GAGGGTATCGGACTGGGGACGTGCTAG: 0.262 z-score
GACGGTATCAACTTTCGGGACGTGCTA: 5.5 z-score
GACGATTTCACTTCCGAGACGTGCTAG: 1.6 z-score
TTATATCTCAGTATCGATTAGTGCTAG: 7.29 z-score
TTAGGTTTCCTACTGCTTTTGTGCTAG: 0.677 z-score
GACGGTATCGCTATCGGGACGTGCTAG: 3.07 z-score
TCACTAATAAATATGAGACTGTGCTAG: 0.513 z-score

Some of these lines once more (series 3):
AGAAACAC: 0.0479
CTGTATTC: 0.132
ACGTCAGA: -0.0194
ACCGCCGC: -0.271
GAGAGCAC: -0.0961
